Results pooled from the literature.
Each line is one published result; not all experiments were run side by side. Values joined by “and” are separate records of one study, mostly repeats; a detail may differ. Numbers after ± are the reported error. ≈ marks a conversion by molar mass, not a printed value.
Organism: Escherichia coli

NC[C@H]1O[C@H](O[C@H]2[C@H](O)[C@@H](O[C@H]3O[C@H](CO)[C@@H](O)[C@H](N)[C@H]3O)[C@H](N)C[C@@H]2N)[C@H](O)[C@@H](O)[C@@H]1O
inhibition zone diameter (CGMCC 1.9; concentration not given, 18 h, 37 °C): 0 mm

N=C(N)c1ccc(/N=N/Nc2ccc(C(=N)N)cc2)cc1
MIC90 (bacterial growth, inhibitor, OD600; E23): 35.6 µM (≈ 10 µg/mL)

CN(C)[C@@H]1C(O)=C(C(N)=O)C(=O)[C@@]2(O)C(O)=C3C(=O)c4c(O)cccc4[C@@](C)(O)[C@H]3C[C@@H]12
MIC fold shift (ATCC 25922; relative to: 5% CO2 over ambient air): 0.5

N=C(N)c1ccc(OCCCCCCCCCCCOc2ccc(C(=N)N)cc2)cc1
MIC in combination (BW25113; concentration not given, lowest-FICI combination, added: erythromycin): 6.25 µg/mL

COC(=O)[C@H]1[C@H]2C[C@@H]3c4[nH]c5cc(OC)ccc5c4CCN3C[C@H]2C[C@@H](OC(=O)c2cc(OC)c(OC)c(OC)c2)[C@@H]1OC
fold enhancement (tetracycline MIC, checkerboard; tetracycline-resistant (pBR322); 64 µM, added: tetracycline; relative to: MIC alone over combination): 2 fold

N=C(N)c1cccc(OCc2ccccc2COc2cccc(C(=N)N)c2)c1
MIC in combination (BW25113; concentration not given, lowest-FICI combination, added: erythromycin): 100 µg/mL

CO[C@H]1/C=C/O[C@@]2(C)Oc3c(C)c(O)c4c(c3C2=O)C2=NC3(CCN(CC(C)C)CC3)NC2=C(NC(=O)/C(C)=C\C=C\[C@H](C)[C@H](O)[C@@H](C)[C@@H](O)[C@@H](C)[C@H](OC(C)=O)[C@@H]1C)C4=O
MIC (ATCC 25922): 5 µM

CCN1CCN(c2cc3c(cc2F)c(=O)c(C(=O)O)cn3C2CC2)CC1
inhibition zone diameter (CGMCC 1.9; concentration not given, 18 h, 37 °C): 14.5 mm

CC1=N/C(=C\c2cc(F)c(O)c(F)c2)C(=O)N1C
saturating concentration (cytoplasmic accumulation, flow cytometry): 300 µM

OB(O)c1csc2ccccc12
growth (100 µM, 10 h; relative to: untreated): 114% and 93.1% and 98% and 105% and 91.4%

Cc1c(CN(C)C(=O)/C=C/c2cnc3c(c2)CC(NC(=O)OC(C)(C)C)C(=O)N3)oc2ccccc12 (stereo not shown)
MIC (broth microdilution; AR-0114): > 32 µg/mL

CCCCCCCNC1=C(n2cncn2)C(=O)c2ccccc2C1=O
zone of inhibition (MTCC 405; 10 µg/mL): 11 mm

[Cl][Fe]([Cl])[Cl]
MIC50 (24 h, 37 °C): > 1600 µM

N[C@@H](CC(=O)O)C(=O)O
EC50 (chemotaxis pathway, FRET; MG1655): 0.5 µM

N=C(N)c1ccc(OCc2ccc(COc3ccc(C(=N)N)cc3)cc2)cc1
MIC in combination (BW25113; concentration not given, lowest-FICI combination, added: erythromycin): 100 µg/mL

Cc1ccc(C[C@H](NC(=O)[C@@H](Cc2ccccc2)NC(=O)[C@@H](Cc2c[nH]c3ccccc23)NC(=O)[C@@H](N)CCCN)C(=O)N[C@H](Cc2ccccc2)C(=O)N[C@H](CCCNC(=N)N)C(N)=O)cc1
IC50 (bacterial growth; ATCC 35218): 4.86 µg/mL (≈ 5.23 µM)

C#CCCCC(=O)NCC
inhibition (LuxR reporter, antagonist; DH5α sensor strain; 100 µM, added: OHHL 200 nM): 3 ± 6%

C=C1C(=O)O[C@@H]2[C@H]3O[C@]3(C)CC/C=C(\C)CC[C@@H]12
remaining growth (100 µM, 6 h, unit not given; relative to: untreated): 0.933

CO[C@H]1/C=C/O[C@@]2(C)Oc3c(C)c(O)c4c(O)c(c(/C=N/N5CCN(C)CC5)c(O)c4c3C2=O)NC(=O)/C(C)=C\C=C\[C@H](C)[C@H](O)[C@@H](C)[C@@H](O)[C@@H](C)[C@H](OC(C)=O)[C@@H]1C
MIC (broth microdilution OD600; Mueller-Hinton broth; 24 h, 37 °C, added: 150 mM NaCl): 8 µM

O=C1C(Cl)=C(n2cncn2)C(=O)c2ccccc21
zone of inhibition (MTCC 405; 10 µg/mL): 17 mm

CN(C)c1ccc(O)c2c1C[C@H]1C[C@H]3[C@H](N(C)C)C(O)=C(C(N)=O)C(=O)[C@@]3(O)C(O)=C1C2=O
MIC fold shift (ATCC 25922; relative to: 5% CO2 over ambient air): 1

C[C@@H](O)[C@H]1C(=O)N2C(C(=O)O)=C(SCCN=CN)C[C@H]12
bacterial load (2904, female ICR mice, peritonitis, kidney; dose not given, 168 h): 4.45 log CFU and 3.64 log CFU and 3.73 log CFU and 4.32 log CFU and 4.68 log CFU and 3.3 log CFU

N#Cc1c(-c2ccc(OCc3ccccc3)cc2)c(C(N)=O)c(N)n(N)c1=O
viable count (time-kill; 1 x MIC, 15 min): 5.83 log CFU/mL

OC[C@H]1O[C@@H]2O[C@H]3[C@H](O)[C@@H](O)[C@@H](O[C@H]4[C@H](O)[C@@H](O)[C@@H](O[C@H]5[C@H](O)[C@@H](O)[C@@H](O[C@H]6[C@H](O)[C@@H](O)[C@@H](O[C@H]7[C@H](O)[C@@H](O)[C@@H](O[C@H]8[C@H](O)[C@@H](O)[C@@H](O[C@H]1[C@H](O)[C@H]2O)O[C@@H]8CO)O[C@@H]7CO)O[C@@H]6CO)O[C@@H]5CO)O[C@@H]4CO)O[C@@H]3CO
inhibition (LuxR reporter bioluminescence, antagonist; DH5α sensor strain; 200 µM, added: OHHL 200 nM): -4 ± 2%

Nc1ccc2c(c1)B(O)OC2
post-antibiotic effect (ATCC 25922; 2xMIC, 1 h): 0.62 ± 0.1 h

CC(=O)Oc1ccc(-c2c(C(N)=O)c(N)n(N)c(=O)c2C#N)cc1
viable count (time-kill; 1 x MIC, 120 min): 0 log CFU/mL

CC(C)Oc1c(NC(=O)c2ccc(NC(=O)[C@H](CC(N)=O)NC(=O)c3ccc(NC(=O)c4ccc(C#N)cc4)cc3)cc2)ccc(C(=O)Nc2ccc(C(=O)O)cc2)c1O
bacterial load reduction below stasis (ATCC 25922, neutropenic mouse thigh infection; iv, 20 mg/kg/day): 1.52 log10 CFU/g

CCn1cc(C(=O)O)c(=O)c2cc(F)c(N3CCNCC3)cc21
inhibition zone diameter (CGMCC 1.9; concentration not given, 18 h, 37 °C): 11 mm

CNC(C)C1CCC(N)C(OC2C(N)CC(N)C(OC3OCC(C)(O)C(NC)C3O)C2O)O1 (stereo not shown)
MIC (ATCC 25922): 1.3 µM

N=C(N)c1ccc(OCc2ccc(-c3ccccc3)cc2COc2ccc(C(=N)N)cc2)cc1
MIC in combination (ATCC 25922; concentration not given, added: rifampicin): 3.13 µg/mL

N[C@@H](CS)C(=O)O
EC50 (chemotactic response, attractant, FRET): 5.9 µM

N=C(N)c1ccc(OCCCOc2ccc(C(=N)N)cc2)cc1
MIC in combination (BW25113; concentration not given, lowest-FICI combination, added: rifampicin): 100 µg/mL

C[C@H](N)C(=O)O
EC50 (chemotaxis pathway, FRET; MG1655): 73.8 µM

N=C(N)c1ccc(OCCSCCOc2ccc(C(=N)N)cc2)cc1
MIC in combination (BW25113; concentration not given, lowest-FICI combination, added: erythromycin): 50 µg/mL

N[C@@H](CO)C(=O)O
EC50 (chemotaxis pathway, FRET; MG1655): 0.9 µM

N=C(N)c1ccc(OCCCCCCCCCOc2ccc(C(=N)N)cc2)cc1
MIC in combination (BW25113; concentration not given, lowest-FICI combination, added: rifampicin): 3.13 µg/mL

CC1(C)S[C@@H]2[C@H](NC(=O)[C@H](N)c3ccc(O)cc3)C(=O)N2[C@H]1C(=O)O
inhibition zone diameter (CGMCC 1.9; concentration not given, 18 h, 37 °C): 0 mm
